Measured values from different studies.
Protocols differ between the studies behind these lines.

With `COC1C=COC2(C)Oc3c(C)c(O)c4c(c3C2=O)C2=NC3(CCN(CC(C)C)CC3)NC2=C(NC(=O)C(C)=CC=CC(C)C(O)C(C)C(O)C(C)C(OC(=O)c2cncnc2)C1C)C4=O` (stereo not shown) the clearance was 3.92 mL/min/kg (female CD-1 mouse, plasma; intravenous, 5 mg/kg).
With `CCC/C(=C\C1=C(F)C(=O)c2ccccc2C1=O)C(=O)N(CC)CC` the clearance was 2.5 mL/min/kg (mouse, plasma; intravenous, 5 mg/kg).
The clearance of `C[N+]1(CC(=O)OC2CCCCCCCCCCC2)CCCCC1` is reported as 3.43 L/h (mouse, plasma; intraperitoneal, 1 mg/kg, single dose).
`O=C(OCc1cccc(O)c1O)c1ccc(O)c(CO)c1` gave a clearance of 94.7 mL/min/kg (male CD-1 mouse, plasma; intravenous, 10 mg/kg, single dose).
For `COc1ccc(Nc2nc(-c3ccccc3)cc(C3CCNCC3)n2)cc1OC`, the clearance was 53 mL/min/kg (male CD-1 mouse, plasma; intravenous, 3 mg/kg).
`Nc1nc2cc(CC[C@H]3C[C@@H](n4ccc5c(N)ncnc54)[C@H](O)[C@@H]3O)ccc2cc1Br` has a clearance of 6.6 mL/min/kg (C57BL/6 mouse, plasma; intravenous, 2.5 mg/kg, single dose).
The clearance of `COC1C=COC2(C)Oc3c(C)c(O)c4c(c3C2=O)C2=NC3(CCN(CC(C)C)CC3)NC2=C(NC(=O)C(C)=CC=CC(C)C(O)C(C)C(O)C(C)C(OC(=O)Nc2cscn2)C1C)C4=O` (stereo not shown) is reported as 2.47 mL/min/kg (female CD-1 mouse, plasma; intravenous, 5 mg/kg).
`Nc1ccn(C[C@@H](CO)OCP(=O)(O)OCCCS(=O)(=O)CCCCCCCCCCC2CCC2)c(=O)n1` gave a clearance of 152 mL/min/kg (mouse, plasma; intravenous, 3 mg/kg, single dose).
`CCS(=O)(=O)c1ccccc1C(=O)N1CCN(c2nc3ccc(F)cc3s2)C[C@@H]1C` has a clearance of 33.2 mL/min/kg (mouse, plasma; intravenous, 3 mg/kg).
For `COC(=O)c1ccc2c(c1)NC(=O)/C2=C(\Nc1ccc2c(c1)CCN2C(=O)CN1CCOCC1)c1ccccc1`, the clearance was 29.7 mL/min/kg (CD-1 mouse, blood; intravenous, 10 mg/kg).
For `NS(=O)(=O)NCC(F)(F)c1ccccc1F`, the clearance was 6.43 mL/min/kg (mouse, plasma; intravenous, 5 mg/kg).
For `Nc1ccn(C[C@@H](CO)OCP(=O)(O)OCCCS(=O)(=O)CCCCCCCCCCCCC2CCC2)c(=O)n1`, the clearance was 104 mL/min/kg (mouse, plasma; intravenous, 3 mg/kg, single dose).
With `COC1C=COC2(C)Oc3c(C)c(O)c4c(c3C2=O)C2=NC3(CCN(CC(C)C)CC3)NC2=C(NC(=O)C(C)=CC=CC(C)C(O)C(C)C(O)C(C)C(OC(=O)Nc2cnccn2)C1C)C4=O` (stereo not shown) the clearance was 2.2 mL/min/kg (female CD-1 mouse, plasma; intravenous, 5 mg/kg).

For quick reference, copied from above:
`CCS(=O)(=O)c1ccccc1C(=O)N1CCN(c2nc3ccc(F)cc3s2)C[C@@H]1C` has a clearance of 33.2 mL/min/kg (mouse, plasma; intravenous, 3 mg/kg).
